Results pooled from the literature.
Each line is one published result; not all experiments were run side by side. Numbers after ± are the reported error.
Cell line: HepG2

[Cl][Cd][Cl] — relative survival (maximum tested, 24 h; reference: vehicle): 43%
NC(=O)c1cc(-c2cccs2)ccc1OCCc1cccc(F)c1 — selectivity ratio (3 (unit not given); reference: CC50 glucose over CC50 galactose): 1
O=S(=O)(c1ccc(-c2ccc3nccc(Nc4nnc(C5CC5)s4)c3c2)cc1)N1CCOCC1 — TC50 (cytotoxicity, MTT; 48 h): > 20 µM
CN1CCN(S(=O)(=O)c2ccc(-c3ccc4nncc(Nc5ccc(OCc6cccc(F)c6)c(Cl)c5)c4c3)cc2)CC1 — TC50 (cytotoxicity, MTT; 48 h): > 15 µM
O=[N+]([O-])c1ccc(Nc2ccnc3ccc(-c4ccc(S(=O)(=O)N5CCOCC5)cc4)cc23)cn1 — TC50 (cytotoxicity, MTT; 48 h): > 20 µM
O=c1ccc2ccccc2o1 — point of departure (measured: cell count; 24 h, ER stress panel): 825 µM
Cc1cscc1-c1ccc(OCCc2cc(F)cc(F)c2)c(C(N)=O)c1 — selectivity ratio (3 (unit not given); reference: CC50 glucose over CC50 galactose): < 1
Fc1cccc(COc2ccc(Nc3nccc4ccc(-c5cccc(N6CCOCC6)c5)cc34)cc2Cl)c1 — TC50 (cytotoxicity, MTT; 48 h): > 15 µM
O=S(=O)(c1ccc(-c2ccc3nccc(Nc4ccccc4)c3c2)cc1)N1CCOCC1 — TC50 (cytotoxicity, MTT; 48 h): > 20 µM
Fc1cccc(COc2ccc(Nc3nncc4ccc(-c5cccc(N6CCOCC6)c5)cc34)cc2Cl)c1 — TC50 (cytotoxicity, MTT; 48 h): > 15 µM
Cc1ccc(OCCc2cc(F)cc(F)c2)c(C(=O)NCC2CC2)c1 — CC50 (galactose medium; 3 (unit not given)): 19 ± 6.8 µM
Cc1ccc(N)cc1N — micronuclei fold increase (maximum tested, 24 (unit not given); reference: vehicle): 0.7 fold
O=S(=O)(c1ccc(-c2ccc3nccc(Nc4cncs4)c3c2)cc1)N1CCOCC1 — TC50 (cytotoxicity, MTT; 48 h): > 20 µM
N.N.[Cl][Pt][Cl] — micronucleated cells (maximum tested): 1.7%
NC(=O)c1cc(-c2ccsc2)ccc1OCCc1cccc(F)c1 — selectivity ratio (3 (unit not given); reference: CC50 glucose over CC50 galactose): 1
O=S(=O)(c1ccc(-c2ccc3c(Nc4ccc(OCc5ccccc5)c(Cl)c4)cnnc3c2)cc1)N1CCOCC1 — TC50 (cytotoxicity, MTT; 48 h): > 11 µM
Cc1cc(Nc2ccnc3ccc(-c4ccc(S(=O)(=O)N5CCOCC5)cc4)cc23)sn1 — TC50 (cytotoxicity, MTT; 48 h): > 20 µM
Cc1cnc(OCCc2cccc(F)c2)c(C(N)=O)c1 — selectivity ratio (3 (unit not given); reference: CC50 glucose over CC50 galactose): < 1
O=S(=O)(c1ccc(-c2ccc3nccc(Nc4ccnnc4)c3c2)cc1)N1CCOCC1 — TC50 (cytotoxicity, MTT; 48 h): > 20 µM
NC(=O)c1cc(C2CC2)ccc1OCCc1cccc(F)c1 — CC50 (galactose medium; 3 (unit not given)): 44 ± 5 µM
